{"data": "Published values from different studies", "note": "Every numbered part comes from another study and shows a few of its results, in no order. Positions count from the first letter of the parent shown."}
{"data": "Block 1", "target": "RING finger protein unkempt homolog, zinc fingers 1-6, SBP tag (UNK, Homo sapiens, UniProt Q9C0B0, residues 30-357)", "technique": "RNA Bind-n-Seq", "molecule type": "RNA", "medium": "in vitro", "tested at": "100 nM", "notes": "RNA with constant flanks, vertebrate orthologous sites, ends assumed", "relative to": "input RNA pool", "reading": "higher = stronger binding", "all sequences stand within": "GGGAGUUCUACAGUCCGACGAUC … CAACAGAGGAUUGAGCAUCA", "UniProt Q9C0B0, sequence (30-357, looked up)": "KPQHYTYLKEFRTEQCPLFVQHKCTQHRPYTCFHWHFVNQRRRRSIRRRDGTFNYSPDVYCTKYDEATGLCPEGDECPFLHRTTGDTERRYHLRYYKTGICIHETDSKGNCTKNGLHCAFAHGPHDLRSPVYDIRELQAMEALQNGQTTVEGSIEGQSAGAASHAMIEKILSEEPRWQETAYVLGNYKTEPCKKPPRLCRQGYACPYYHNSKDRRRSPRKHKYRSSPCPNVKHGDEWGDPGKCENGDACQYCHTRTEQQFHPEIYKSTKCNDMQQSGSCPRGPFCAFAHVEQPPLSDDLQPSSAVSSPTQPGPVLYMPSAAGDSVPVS"}
{"Strand": "GAACUAAAGGAGUUAGCAUCUUUAUUUUUGUAUCAAAGAUAAAGAUUAUUUUGAAAUUAUUAAGAUUUUUACACAACUCUGAAAAUCUGUUGCUUUUGUAAACAAGUUGUUUAAUCUUAG", "bound/input enrichment": "0.613 ratio"}
{"Strand": "GGGACGCUUCGAUGUAAAGAUUGAAGUUAAGAGCUGAUCACAAGCACAAACCUUUCCCACUAGCCAUUUAAAGAGUUAAGAAAAAGAUACAAAACAACCUACUAGUCUUGAACAAACUGU", "bound/input enrichment": "1.61 ratio"}
{"Strand": "AGACUUAUAUUGUGGCAUAUAGUCAACAUGGAAGUAGACCAGCUCUGCCGAUUUGAAAUUUAGAUUUUUUUAAAUUAUGUACUGGGGACAGGUCUUUGUCGCUUUACAUUGCUUCCUAGU", "bound/input enrichment": "2.78 ratio"}
{"Strand": "CUGAAGCUUUGUGUCUGGCUGCACUUGCAUAAGCUGCUACAAAUAGAAUAAAGAAUUUCUUAGCCUGGAUCUAUCAUUUAGAUGCAUGGAAAAUGGGCUUUGCACACAGUGGGUUUGGAG", "bound/input enrichment": "1.36 ratio"}
{"Strand": "AUUUUUACAAUCUCAAGCAGGUAUUUACGUACCACGAUAAGCCUUCAUUUGACAUAUUUACAGCUUUUCUAUUUUCCAGAUGAGAGAAAAGAAUUCCAUGCUUAGAGUUAAAUGUGGUCU", "bound/input enrichment": "0.517 ratio"}
{"Strand": "GCACUCCCCAUGCGAAUUUCACAACACUGAAUGCAAAGUAGUAGUUUUCGUAGUCACAGUAAGGUAGCUUUAGGGCGGUAUCACCGUGGUGUUACUCGUGCAGGUUUUGAAAAUGUAUAA", "bound/input enrichment": "0.968 ratio"}
{"Strand": "UCAUUCUCUUCUCCCUUAUCCUGAUUUUAAAAGCCCUUUUUCUUUUCUUUUUUUUUCUAGGCAUAUGUAGUAACAUUAGCAGAAAGAUUUAAUUUGGGCAACUUUGAUUCUUAAAAGAGA", "bound/input enrichment": "0.869 ratio"}
{"Strand": "GUUGGGUCAUGAUCCUUAUAGGUUAGGUCAUGAUGCUUACAGGUUAGGACAGGACCCCUAUAGGUUAGGCCAUGAUCCCUACAGACUAACACCUGACCCCUACAGGAUGUCACCGAGACC", "bound/input enrichment": "0.383 ratio"}
{"data": "Block 2", "target": "CCNE1, cyclin fold, Cln2 fusion (human)", "technique": "yeast growth competition, sequencing", "medium": "yeast", "notes": "strong parent motif", "relative to": "not given", "reading": "higher = stronger binding", "parent": "RBL2 docking peptide (human); STTRRRLFVENDS"}
{"Substitution": "R6T", "normalised enrichment score": 1.54}
{"Substitution": "D12K", "normalised enrichment score": 3.83}
{"Substitution": "E10V", "normalised enrichment score": 3.83}
{"Substitution": "R4A", "normalised enrichment score": 4.28}
{"Substitution": "L7P", "normalised enrichment score": 0.158}
{"Substitution": "E10H", "normalised enrichment score": 2.87}
{"Substitution": "D12C", "normalised enrichment score": 4.12}
{"Substitution": "T2P", "normalised enrichment score": 4.93}
{"Substitution": "R5G", "normalised enrichment score": -0.043}
{"Substitution": "R4H", "normalised enrichment score": 1.2}
{"Substitution": "R6P", "normalised enrichment score": -0.174}
{"Substitution": "R4E", "normalised enrichment score": 0.315}
{"Substitution": "N11Q", "normalised enrichment score": 5.73}
{"Substitution": "R6F", "normalised enrichment score": 0.993}
{"Substitution": "R6H", "normalised enrichment score": 0.697}
{"Substitution": "R5K", "normalised enrichment score": 1.87}
{"Substitution": "D12L", "normalised enrichment score": 3.58}
{"data": "Block 3", "target": "RNA binding protein fox-1 homolog 2, RRM domain, GST-SBP tag (RBFOX2, Homo sapiens, UniProt O43251-10, residues 100-194)", "technique": "RNA Bind-n-Seq", "molecule type": "RNA", "medium": "in vitro", "tested at": "365 nM", "notes": "natural RNA segment, single round, ends assumed", "relative to": "no-protein control", "reading": "higher = stronger binding", "all sequences stand within": "GGGAGUUCUACAGUCCGACGAUC … UGGAAUUCUCGGGUGCCAA", "Residues (chain)": "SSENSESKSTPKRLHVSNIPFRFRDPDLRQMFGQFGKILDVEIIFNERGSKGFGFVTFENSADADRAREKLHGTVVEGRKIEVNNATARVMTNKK"}
{"Strand": "CACAGCCCCGUGAACCCUGAGGAGUGGAGUCAUACGCGAAGGGUGUGUGGCCAGGCUGCAGAGCUGCGUGCCGUUUGUGUCCGAGCAUCACGUGUGGCUCCAGCCCUUGU", "RBNS enrichment (R)": 0.353}
{"Strand": "UUAAAAAAAUAAAUUAUCCUGCUUUAGUUAGUGUGUUAAAAGUAGACGAUGUUCUAAUAUAACACUGAAGUGCUUCAUUGUAUCCCAACAGUUUACCUUCAAGUAAUAUU", "RBNS enrichment (R)": 1.02}
{"Strand": "GAUUUAUGCUGGUGGAGGUGUUGUUUGUCCUAUGGAAGAUAUUUUCUACUGAGCUGGGCUACUGUACACAAUGGACAGUGUGCAUUUCUGUACAGGUUACGGUUCUAUGC", "RBNS enrichment (R)": 0.587}
{"Strand": "ACAAUAAGUUCAGGAGCUGUGCCAAGCACUUUCCUCUUUUACAGCUGGAGAUCACUGGAAAGGUGUCUCAGUCACAAAACUUCUCCCUCUACUACUGGAUGAAAUGUCUG", "RBNS enrichment (R)": 0.398}
{"Strand": "AGUAUAGUCAAAUCAAUUGCAUAAGUAAUUUAUUUUCUACUUCUUAUGUCUGUGAUAAUUGCUUUGACUUUAUUAUCAUGUAUUAAACAGUAAUAACAAUGGGACUUAGA", "RBNS enrichment (R)": 0.502}
{"Strand": "GGCUCCUUCAUCGAAUGCUAAACCUUUGAGUAGAGUCUCCCUGGAUCACAUACCAGGUCAGGGAGGAUCUGUUCUUCCUCUACGUUUAUCCUGGCAUGUGCUAGGGUAAA", "RBNS enrichment (R)": 0.548}
{"Strand": "AUAGUCUUCACUGCUUCACCUUGUUAAGUCAGAUAUUUAUGAUAAUGAAGUACGGAACUGGGAACUGGGGUCGUUGUUGACUAAUUGGUCCUAAGAGGAUAAAUUAUGUA", "RBNS enrichment (R)": 0.597}
{"Strand": "UGAACCACUGUGGCCUUCUCUUCUCAGCCUUCACUGUGACACGGGGGACAUUGAGUGACAAGCCUCAGAAUGUUACAGAGGUAAAGUGAGGCAUCUCAAAUCCACUGACA", "RBNS enrichment (R)": 0.932}
{"data": "Block 4", "target": "NFE2L2, bZIP domain (human)", "technique": "DHFR protein complementation", "medium": "yeast", "notes": "single substitutions, most at no-binding floor", "relative to": "wild-type JUN-FOS pair", "reading": "higher = stronger binding", "parent": "JUN, bZIP domain (human); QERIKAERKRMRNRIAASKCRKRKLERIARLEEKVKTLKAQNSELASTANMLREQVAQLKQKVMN; partner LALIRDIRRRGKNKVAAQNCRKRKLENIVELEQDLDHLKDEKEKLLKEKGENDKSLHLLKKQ"}
{"Substitution": "V35F", "binding fitness": "-1.55 natural log"}
{"Substitution": "L52V", "binding fitness": "-1.25 natural log"}
{"Substitution": "K34F", "binding fitness": "-1.17 natural log"}
{"Substitution": "L45H", "binding fitness": "-1.47 natural log"}
{"Substitution": "A46I", "binding fitness": "-1.32 natural log"}
{"Substitution": "N42F", "binding fitness": "-1.28 natural log"}
{"Substitution": "V56A", "binding fitness": "-1.26 natural log"}
{"Substitution": "M51S", "binding fitness": "-1.51 natural log"}
{"Substitution": "V35W", "binding fitness": "-1.53 natural log"}
{"Substitution": "L59W", "binding fitness": "-1.42 natural log"}
{"Substitution": "E33R", "binding fitness": "-1.3 natural log"}
{"Substitution": "M51Q", "binding fitness": "-1.6 natural log"}
{"Substitution": "T37S", "binding fitness": "-1.58 natural log"}
{"Substitution": "L45C", "binding fitness": "-1.55 natural log"}
{"Substitution": "S47G", "binding fitness": "-1.42 natural log"}
{"Substitution": "K36L", "binding fitness": "-1.36 natural log"}
{"Substitution": "A49S", "binding fitness": "-1.45 natural log"}
{"Substitution": "K39R", "binding fitness": "-1.21 natural log"}
{"Substitution": "A40R", "binding fitness": "-1.34 natural log"}
{"Substitution": "L52P", "binding fitness": "-1.49 natural log"}
{"Substitution": "M51N", "binding fitness": "-1.44 natural log"}
{"Substitution": "T37D", "binding fitness": "-1.54 natural log"}
{"Substitution": "N42T", "binding fitness": "-1.33 natural log"}
{"Substitution": "T48A", "binding fitness": "-1.47 natural log"}
{"Substitution": "R30N", "binding fitness": "-1.25 natural log"}
{"note": "Excerpt of the above (block 4):"}
{"Substitution": "L59W", "binding fitness": "-1.42 natural log"}
{"Substitution": "N42F", "binding fitness": "-1.28 natural log"}
{"Substitution": "V35F", "binding fitness": "-1.55 natural log"}
